{"data": "Published values pooled from the literature", "note": "Every numbered part comes from another study and shows a few of its results, in no order. Positions count from the first letter of the parent shown.", "chain of UniProt Q9BY78 (whole entry, looked up)": "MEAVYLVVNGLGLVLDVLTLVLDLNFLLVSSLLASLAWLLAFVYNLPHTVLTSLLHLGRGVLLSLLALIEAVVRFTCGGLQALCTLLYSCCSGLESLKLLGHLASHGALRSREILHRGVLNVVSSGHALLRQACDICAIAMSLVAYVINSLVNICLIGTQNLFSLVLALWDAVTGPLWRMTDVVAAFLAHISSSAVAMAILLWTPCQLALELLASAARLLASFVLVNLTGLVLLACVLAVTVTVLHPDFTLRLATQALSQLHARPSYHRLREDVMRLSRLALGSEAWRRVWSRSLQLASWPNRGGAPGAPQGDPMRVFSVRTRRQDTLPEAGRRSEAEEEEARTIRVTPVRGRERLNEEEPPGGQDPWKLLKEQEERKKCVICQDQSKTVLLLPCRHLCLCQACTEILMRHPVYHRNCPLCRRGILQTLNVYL", "chain of UniProt Q9UNE7 (whole entry, looked up)": "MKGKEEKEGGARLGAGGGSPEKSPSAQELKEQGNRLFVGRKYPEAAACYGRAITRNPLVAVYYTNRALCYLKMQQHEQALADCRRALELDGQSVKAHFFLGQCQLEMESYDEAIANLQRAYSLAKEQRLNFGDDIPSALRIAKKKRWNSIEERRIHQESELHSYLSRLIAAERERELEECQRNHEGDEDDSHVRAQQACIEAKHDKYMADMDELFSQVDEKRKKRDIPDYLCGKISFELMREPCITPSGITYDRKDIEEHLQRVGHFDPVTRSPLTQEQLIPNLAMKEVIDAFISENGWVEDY", "chain of UniProt O43567 (whole entry, looked up)": "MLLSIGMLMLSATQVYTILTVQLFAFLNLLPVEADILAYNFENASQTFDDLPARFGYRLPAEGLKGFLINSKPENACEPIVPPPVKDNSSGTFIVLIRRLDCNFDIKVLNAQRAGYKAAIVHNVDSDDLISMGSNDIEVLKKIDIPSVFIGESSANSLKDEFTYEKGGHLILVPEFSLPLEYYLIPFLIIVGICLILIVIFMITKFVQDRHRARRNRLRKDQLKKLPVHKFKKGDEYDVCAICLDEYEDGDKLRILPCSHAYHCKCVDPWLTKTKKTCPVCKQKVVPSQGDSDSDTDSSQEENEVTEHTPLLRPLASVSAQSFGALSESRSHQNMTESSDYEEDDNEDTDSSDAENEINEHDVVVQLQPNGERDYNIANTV"}
{"data": "Block 1", "target": "CCNB2, cyclin fold, Cln2 fusion (human)", "method": "yeast growth competition, sequencing", "matrix": "yeast", "setting": "strong parent motif", "reference": "not given", "direction": "higher = stronger binding", "starting sequence": "viral docking peptide; TSVRRALFTGGSD"}
{"Change": "TSVRRALFTGGFD [S12F]", "normalised enrichment score": 0.561}
{"Change": "TSVRRALFTGGHD [S12H]", "normalised enrichment score": 1}
{"Change": "TSVRTALFTGGSD [R5T]", "normalised enrichment score": -0.0611}
{"Change": "TSVRRALFTGHSD [G11H]", "normalised enrichment score": 0.673}
{"Change": "TSVRRAIFTGGSD [L7I]", "normalised enrichment score": 0.201}
{"Change": "TSVRRAFFTGGSD [L7F]", "normalised enrichment score": -0.288}
{"Change": "TSTRRALFTGGSD [V3T]", "normalised enrichment score": 0.483}
{"Change": "TSVRKALFTGGSD [R5K]", "normalised enrichment score": 0.782}
{"data": "Block 2", "target": "Dual specificity tyrosine-phosphorylation-regulated kinase 1B (DYRK1B, Homo sapiens, UniProt Q9Y463)", "effect on": "enzyme activity", "mode": "inhibitor", "method": "radiometric", "tested at": "0.5 µM"}
{"SMILES": "O=c1cc(-c2cccc3c2Sc2ccccc2S3)oc(N2CCOCC2)c1", "remaining activity [%]": 101}
{"SMILES": "N#Cc1c(NC(=O)c2cccc3ccccc23)sc2c1CCCC2", "remaining activity [%]": 101}
{"SMILES": "CN(C)C[C@H]1CCn2c(c(C3=C(c4cn(C)c5ccccc45)C(=O)NC3=O)c3ccccc32)C1", "remaining activity [%]": 92.2}
{"SMILES": "COc1cc2ncnc(Nc3ccc(O)c(Br)c3)c2cc1OC", "remaining activity [%]": 91.3}
{"SMILES": "COc1cc(OC)c(C=C2C(O)=Nc3ccccc32)c(OC)c1", "remaining activity [%]": 99}
{"SMILES": "O=C1Nc2ccc(Cl)cc2C1=Cc1cc(Cl)c(O)c(Cl)c1", "remaining activity [%]": 90.9}
{"SMILES": "c1ccc(-c2[nH]ncc2-c2ccnc3ccccc23)nc1", "remaining activity [%]": 102}
{"SMILES": "CCN(CC)C(=O)c1ccc(Nc2nc(OCC3CCCCC3)c3[nH]cnc3n2)cc1", "remaining activity [%]": 90.2}
{"SMILES": "c1ccc(-c2cnc(Nc3ccc(OCCN4CCCC4)cc3)s2)cc1", "remaining activity [%]": 95.4}
{"SMILES": "C[C@@H]1CCN(C(=O)CC#N)C[C@@H]1N(C)c1ncnc2[nH]ccc12", "remaining activity [%]": 97}
{"SMILES": "N#C/C(=C\\c1ccc(O)c(O)c1)C(=O)NCc1ccccc1", "remaining activity [%]": 106}
{"SMILES": "O=C1c2ccccc2-c2n[nH]c3cccc1c23", "remaining activity [%]": 65.7}
{"SMILES": "Ic1cccc(CSc2nnc(-c3ccncc3)o2)c1", "remaining activity [%]": 96.7}
{"SMILES": "O=C(Nc1cccc(Nc2nccc(Nc3cccc(C(F)(F)F)c3)n2)c1)C1CC1", "remaining activity [%]": 96.3}
{"SMILES": "CCN(CC)CCNC(=O)c1c(C)[nH]c(/C=C2\\C(=O)Nc3ccc(Cl)cc32)c1C", "remaining activity [%]": 47.5}
{"data": "Block 3", "target": "UBE2D3 UBC core domain (UniProt P61077)", "method": "yeast two-hybrid", "matrix": "yeast", "setting": "mostly zero background", "reference": "not given", "direction": "higher = stronger interaction", "chain of UniProt P61077 (whole entry, looked up)": "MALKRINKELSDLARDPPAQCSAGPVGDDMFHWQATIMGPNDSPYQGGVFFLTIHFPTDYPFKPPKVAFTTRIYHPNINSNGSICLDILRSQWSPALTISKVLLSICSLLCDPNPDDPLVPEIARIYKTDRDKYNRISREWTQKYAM"}
{"Substance": "RNF26 RING domain (UniProt Q9BY78)", "lacZ reporter activity": 4390}
{"Substance": "STUB1 RING domain (UniProt Q9UNE7)", "lacZ reporter activity": 0}
{"Substance": "RNF13 RING domain (UniProt O43567)", "lacZ reporter activity": 12700}
{"Substance": "RNF167 RING domain (UniProt Q9H6Y7)", "lacZ reporter activity": 16000}
{"data": "Further values, each from its own experiment", "CBF1 full length, N-terminal tag": "Centromere-binding protein 1, full length, N-terminal tag (CBF1, Saccharomyces cerevisiae, UniProt P17106, residues 1-351)", "chain of UniProt P17106 (whole entry, looked up)": "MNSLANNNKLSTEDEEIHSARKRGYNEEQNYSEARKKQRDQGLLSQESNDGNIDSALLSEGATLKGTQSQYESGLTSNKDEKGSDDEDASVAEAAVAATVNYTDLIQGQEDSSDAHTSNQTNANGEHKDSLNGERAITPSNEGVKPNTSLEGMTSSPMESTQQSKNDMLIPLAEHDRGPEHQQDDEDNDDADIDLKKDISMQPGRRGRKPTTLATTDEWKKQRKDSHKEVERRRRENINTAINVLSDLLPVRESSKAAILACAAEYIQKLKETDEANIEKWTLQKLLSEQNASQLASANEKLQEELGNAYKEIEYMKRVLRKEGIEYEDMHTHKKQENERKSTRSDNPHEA"}
{"Substance": "TGTACGAAGCTATATCAGGTGTGTATAGTAGTTAGGGTCTTGATTCGCTTGACGCTGCTG", "target or system": "CBF1 full length, N-terminal tag", "assay": "protein-binding microarray", "system": "double-stranded DNA, one strand shown, in vitro", "setting": "0.8 µM, whole 60-bp probe, no competitor", "scale": "higher = stronger binding", "quantity": "fluorescence intensity", "result": "675 a.u."}
{"Substance": "COc1cc([C@@H]2c3cc4c(cc3[C@H](O)[C@H]3COC(=O)[C@H]23)OCO4)cc(OC)c1OC", "target or system": "mouse MPNST tumor cells", "assay": "high-content nuclear imaging, measured: cell number", "setting": "10 µM, 12 h, mean of 2 replicates", "scale": "reference: plate mean, higher = more cells", "quantity": "nuclei count", "result": "-4.16 z-score"}
{"Substance": "CTAAAAAAAATAAGTCACGTGCACTCAGTACCCTTCGTCTTGATTCGCTTGACGCTGCTG", "target or system": "CBF1 full length, N-terminal tag", "assay": "protein-binding microarray", "system": "double-stranded DNA, one strand shown, in vitro", "setting": "0.8 µM, whole 60-bp probe, no competitor", "scale": "higher = stronger binding", "quantity": "fluorescence intensity", "result": "27300 a.u."}
